Experimental data gathered from unrelated publications.
Protocols differ between the studies behind these lines. “And” joins repeats or separate records; there may be more than shown. ± marks the error that the study gave. Values after ≈ are worked out from the molar mass of the structure shown.
Chain of UniProt P78527 (whole entry, looked up): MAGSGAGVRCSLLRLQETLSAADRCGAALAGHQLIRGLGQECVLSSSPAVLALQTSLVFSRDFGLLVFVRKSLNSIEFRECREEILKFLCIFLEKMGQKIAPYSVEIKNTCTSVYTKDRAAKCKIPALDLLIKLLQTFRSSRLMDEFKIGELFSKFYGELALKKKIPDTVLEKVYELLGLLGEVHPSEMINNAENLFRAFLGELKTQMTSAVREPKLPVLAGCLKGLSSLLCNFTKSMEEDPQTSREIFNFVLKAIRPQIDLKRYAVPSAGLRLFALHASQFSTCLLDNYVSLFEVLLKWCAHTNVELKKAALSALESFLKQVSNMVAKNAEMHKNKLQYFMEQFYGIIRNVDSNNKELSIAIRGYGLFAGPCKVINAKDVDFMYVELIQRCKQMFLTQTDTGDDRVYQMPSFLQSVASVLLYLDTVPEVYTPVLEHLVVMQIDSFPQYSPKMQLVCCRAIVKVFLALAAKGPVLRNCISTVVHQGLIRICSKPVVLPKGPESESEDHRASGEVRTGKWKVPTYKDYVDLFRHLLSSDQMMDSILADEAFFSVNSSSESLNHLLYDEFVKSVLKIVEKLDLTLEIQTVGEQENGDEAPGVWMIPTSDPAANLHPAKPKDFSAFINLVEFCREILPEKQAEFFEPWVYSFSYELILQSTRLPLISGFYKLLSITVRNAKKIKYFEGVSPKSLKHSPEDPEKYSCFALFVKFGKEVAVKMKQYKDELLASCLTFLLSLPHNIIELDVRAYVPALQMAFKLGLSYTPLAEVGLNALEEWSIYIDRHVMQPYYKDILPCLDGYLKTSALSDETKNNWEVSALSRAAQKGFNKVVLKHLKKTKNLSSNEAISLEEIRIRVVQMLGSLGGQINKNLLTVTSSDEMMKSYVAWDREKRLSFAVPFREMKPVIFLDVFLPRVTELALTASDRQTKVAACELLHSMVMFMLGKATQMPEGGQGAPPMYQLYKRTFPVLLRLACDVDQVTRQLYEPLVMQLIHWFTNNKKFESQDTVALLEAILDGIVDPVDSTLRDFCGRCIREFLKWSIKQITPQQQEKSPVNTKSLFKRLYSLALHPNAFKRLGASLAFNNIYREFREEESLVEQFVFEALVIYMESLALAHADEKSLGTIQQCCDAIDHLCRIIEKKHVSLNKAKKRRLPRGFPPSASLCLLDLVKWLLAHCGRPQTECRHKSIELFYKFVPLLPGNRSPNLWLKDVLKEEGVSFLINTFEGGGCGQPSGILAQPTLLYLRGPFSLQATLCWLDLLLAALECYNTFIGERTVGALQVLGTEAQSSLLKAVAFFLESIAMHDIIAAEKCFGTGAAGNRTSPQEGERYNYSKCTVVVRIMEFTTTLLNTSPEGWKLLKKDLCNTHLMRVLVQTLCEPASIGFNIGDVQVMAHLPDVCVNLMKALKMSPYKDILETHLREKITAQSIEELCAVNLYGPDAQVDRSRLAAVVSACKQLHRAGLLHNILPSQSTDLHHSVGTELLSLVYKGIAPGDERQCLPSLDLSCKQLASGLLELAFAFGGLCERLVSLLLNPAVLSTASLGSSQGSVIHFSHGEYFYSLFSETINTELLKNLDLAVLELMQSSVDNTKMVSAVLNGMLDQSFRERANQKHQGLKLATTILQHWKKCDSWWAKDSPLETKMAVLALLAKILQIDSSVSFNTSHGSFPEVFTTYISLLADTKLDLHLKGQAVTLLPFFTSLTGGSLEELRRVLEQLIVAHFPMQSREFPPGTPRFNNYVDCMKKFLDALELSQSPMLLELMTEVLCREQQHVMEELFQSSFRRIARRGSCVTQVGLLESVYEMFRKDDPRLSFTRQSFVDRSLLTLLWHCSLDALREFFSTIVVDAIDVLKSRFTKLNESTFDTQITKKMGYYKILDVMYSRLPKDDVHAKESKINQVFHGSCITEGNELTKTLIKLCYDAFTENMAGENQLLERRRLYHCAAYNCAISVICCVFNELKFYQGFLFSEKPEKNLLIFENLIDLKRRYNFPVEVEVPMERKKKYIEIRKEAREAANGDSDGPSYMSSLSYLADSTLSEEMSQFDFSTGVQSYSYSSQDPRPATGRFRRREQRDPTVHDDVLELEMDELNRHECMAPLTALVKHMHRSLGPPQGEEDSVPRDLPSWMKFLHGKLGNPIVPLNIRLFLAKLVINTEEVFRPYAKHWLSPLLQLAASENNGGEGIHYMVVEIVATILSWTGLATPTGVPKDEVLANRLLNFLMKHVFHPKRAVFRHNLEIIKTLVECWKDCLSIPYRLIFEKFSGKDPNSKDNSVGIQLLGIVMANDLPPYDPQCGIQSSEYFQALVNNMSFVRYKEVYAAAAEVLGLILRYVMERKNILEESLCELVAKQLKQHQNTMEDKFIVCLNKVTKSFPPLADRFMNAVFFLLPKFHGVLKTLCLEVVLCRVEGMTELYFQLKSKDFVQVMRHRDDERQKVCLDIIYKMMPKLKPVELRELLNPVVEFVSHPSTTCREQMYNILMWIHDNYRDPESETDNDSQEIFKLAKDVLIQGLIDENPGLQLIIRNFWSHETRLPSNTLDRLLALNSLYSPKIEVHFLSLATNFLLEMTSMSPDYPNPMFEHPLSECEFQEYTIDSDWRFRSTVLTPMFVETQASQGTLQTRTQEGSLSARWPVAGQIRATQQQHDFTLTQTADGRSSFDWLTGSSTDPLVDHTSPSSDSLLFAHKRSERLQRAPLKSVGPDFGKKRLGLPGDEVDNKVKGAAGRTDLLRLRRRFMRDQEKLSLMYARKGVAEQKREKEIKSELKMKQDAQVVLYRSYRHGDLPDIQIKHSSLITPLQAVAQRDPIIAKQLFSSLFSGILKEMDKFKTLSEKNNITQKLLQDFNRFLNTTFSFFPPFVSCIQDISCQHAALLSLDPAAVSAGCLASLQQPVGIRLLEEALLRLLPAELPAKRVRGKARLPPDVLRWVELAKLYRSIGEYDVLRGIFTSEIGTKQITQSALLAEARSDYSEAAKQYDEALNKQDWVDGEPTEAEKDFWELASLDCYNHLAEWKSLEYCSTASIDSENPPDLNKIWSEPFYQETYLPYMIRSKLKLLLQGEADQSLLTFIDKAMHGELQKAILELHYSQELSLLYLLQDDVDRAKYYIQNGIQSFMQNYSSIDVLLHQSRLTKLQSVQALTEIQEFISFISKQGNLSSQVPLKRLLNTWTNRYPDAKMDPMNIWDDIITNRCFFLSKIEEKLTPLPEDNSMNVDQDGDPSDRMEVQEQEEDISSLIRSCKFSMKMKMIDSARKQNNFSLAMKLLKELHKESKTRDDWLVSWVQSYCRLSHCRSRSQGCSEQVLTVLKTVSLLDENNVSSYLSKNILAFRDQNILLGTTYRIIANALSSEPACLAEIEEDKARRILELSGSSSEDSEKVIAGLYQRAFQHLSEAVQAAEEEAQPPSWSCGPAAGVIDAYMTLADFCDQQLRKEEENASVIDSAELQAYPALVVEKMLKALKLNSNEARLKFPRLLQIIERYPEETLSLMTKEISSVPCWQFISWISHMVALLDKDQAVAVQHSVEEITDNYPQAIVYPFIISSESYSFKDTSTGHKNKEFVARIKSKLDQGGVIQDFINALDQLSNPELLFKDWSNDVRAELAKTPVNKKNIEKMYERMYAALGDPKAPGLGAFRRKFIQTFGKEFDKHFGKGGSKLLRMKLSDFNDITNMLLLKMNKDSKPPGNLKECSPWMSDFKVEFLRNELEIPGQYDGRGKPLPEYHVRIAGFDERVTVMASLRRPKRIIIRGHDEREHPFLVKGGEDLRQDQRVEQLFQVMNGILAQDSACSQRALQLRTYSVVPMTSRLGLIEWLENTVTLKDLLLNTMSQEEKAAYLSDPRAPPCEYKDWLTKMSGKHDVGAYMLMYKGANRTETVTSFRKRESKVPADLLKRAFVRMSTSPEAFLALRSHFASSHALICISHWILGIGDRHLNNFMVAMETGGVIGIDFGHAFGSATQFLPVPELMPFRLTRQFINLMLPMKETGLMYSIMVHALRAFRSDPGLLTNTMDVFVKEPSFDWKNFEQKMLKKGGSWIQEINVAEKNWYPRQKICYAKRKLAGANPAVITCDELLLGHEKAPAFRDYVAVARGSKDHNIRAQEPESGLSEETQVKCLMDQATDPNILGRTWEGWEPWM

| Compound | target or system | test | test system | setting | how to read | endpoint | value |
| --- | --- | --- | --- | --- | --- | --- | --- |
| C/C(N)=N/C(=N\S(=O)(=O)c1ccc(C(F)(F)F)cc1)N1C[C@H](c2ccccc2)C(c2ccc(Cl)cc2)=N1 |  |  | C57BL/6 mouse, liver | intravenous, 10 mg/kg |  | Cmax | 27700 ng/mL |
| N#Cc1ccnc(N2C(=O)CC[C@H]2C(=O)N(c2cc(F)cc(F)c2)[C@H](C(=O)NC2CC(F)(F)C2)c2ccccc2Cl)c1 (stereo in doubt) |  |  | cynomolgus monkey, plasma |  |  | half-life | 750 min |
| CC[C@H](C)[C@H](NC(=O)CNC(=O)[C@H](C)NC(=O)[C@H](CC(=O)O)NC(=O)[C@H](CO)NC(=O)[C@H](C)NC(=O)[C@H](CC(C)C)NC(=O)[C@H](CCCCN)NC(=O)[C@H](CCCCN)NC(=O)[C@H](CCSC)NC(=O)[C@H](CC(N)=O)NC(=O)[C@H](Cc1ccccc1)NC(=O)[C@H](CC(=O)O)NC(=O)[C@@H](N)CCSC)C(=O)N[C@@H](Cc1c[nH]c2ccccc12)C(=O)N[C@@H](Cc1ccccc1)C(=O)N[C@H](C(=O)N[C@@H](CCCNC(=N)N)C(=O)N[C@@H](C)C(=O)N[C@H](C(=O)N[C@@H](CCC(N)=O)C(=O)N[C@@H](Cc1ccccc1)C(=O)N[C@H](C(=O)N[C@@H](CCC(=O)O)C(=O)N[C@@H](CCC(=O)O)C(=O)N[C@@H](CCCCN)C(=O)N[C@@H](Cc1ccccc1)C(=O)NCC(=O)N[C@@H](CCC(N)=O)C(=O)N[C@@H](C)C(N)=O)[C@@H](C)O)C(C)C)[C@@H](C)O |  | circular dichroism | aqueous TFE | 50 µM, pH 7.4, 20 °C |  | m value | 2.55 ± 1.3 kcal/mol/M |
| CN(Cc1ccc(C2(C(F)(F)F)CCC2)cc1)Cc1cccc2ccccc12 |  |  | PBS | 2 h, pH 7.4, 25 °C, 2% DMSO |  | solubility | 7 µM (≈ 2.68 µg/mL) |
| CCCCC/C=C\CCCO[Si](CCCN(C)C)(OCCC/C=C\CCCCC)OCCC/C=C\CCCCC |  |  |  | pH 7.5, formulated |  | zeta potential | -0.11 mV |
| O=C1NC2(CC2)COc2ncc(F)cc2[C@H]2COCCN2c2ccn3ncc1c3n2 | CHL | chromosomal aberration test |  | 300 µg/mL, 4 h, with rat liver S9 |  | polyploid cells | 0% |
| COC1CN([C@H]2CC[C@H]([C@@]3(C)Oc4c(Cl)cc(C(=O)NCc5c(SC)cc(C)[nH]c5=O)c(C)c4O3)CC2)C1 |  | RNA-seq, measured: LRRC1 mouse homolog | mouse, HT-1376 xenograft, whole blood | dose not given | reference: vehicle | log2 fold change | 0.0893 |
| Oc1ccc([C@@H]2Oc3ccc(O)cc3[C@@H]3CCC[C@@H]32)cc1 |  |  | C57BL/6 mice, male, plasma | oral, 10 mg/kg |  | oral bioavailability | 13.9% |
| COc1cccc(OC)c1-c1cc(C(=O)NC2(C(=O)O)C3CC4CC(C3)CC2C4)nn1-c1ccc(C(=O)N(C)CCOCCOCCN(C)C(=O)[C@H](CCCCNC(=O)[C@H](CC(C)C)NC(=O)C2OC2C(=O)O)NC(=O)CN2CCN(CC(=O)[O-])CCN(CC(=O)[O-])CCN(CC(=O)[O-])CC2)cc1C(C)C.[177Lu+3] (mixture of isomers) |  |  | mouse, HT-29 xenograft, HT-29 tumour | 4 h post injection |  | tissue uptake | 4.6 %ID/g |
| Cc1nc(N)nc2c1C(=O)N[C@@H](c1ccc(F)cc1-c1cccc(O[11CH3])n1)C2 |  | ex vivo biodistribution | mice, U87 subcutaneous xenograft, pancreas | 60 min post-injection, baseline, vehicle pre-treatment |  | SUV | 2.7 ± 0.1 |
| CC[C@H](C)[C@H](NC(=O)[C@H](Cc1ccccc1)NC(=O)[C@H](CCC(=O)O)NC(=O)[C@H](CCCCN)NC(=O)[C@H](C)NC(=O)[C@H](C)NC(=O)[C@H](CCC(N)=O)NC(=O)CNC(=O)[C@H](CCC(=O)O)NC(=O)[C@H](CC(C)C)NC(=O)[C@H](Cc1ccc(O)cc1)NC(=O)[C@H](CO)NC(=O)[C@H](CO)NC(=O)[C@@H](NC(=O)[C@H](CC(=O)O)NC(=O)[C@H](CO)NC(=O)[C@@H](NC(=O)[C@H](Cc1ccccc1)NC(=O)[C@@H](NC(=O)CNC(=O)[C@H](CCC(=O)O)NC(=O)[C@H](C)NC(=O)[C@@H](N)Cc1c[nH]cn1)[C@@H](C)O)[C@@H](C)O)C(C)C)C(=O)N[C@@H](C)C(=O)N[C@@H](Cc1c[nH]c2ccccc12)C(=O)N[C@@H](CC(C)C)C(=O)N[C@H](C(=O)N[C@@H](CCCNC(=N)N)C(=O)NCC(=O)N[C@@H](CCCNC(=N)N)C(=O)NCC(=O)O)C(C)C |  |  | male ICR mice, plasma | intravenous, 1 mg/kg |  | AUC extrapolated | 1.52% and 0.14% |
| Cc1ncsc1-c1ccc(C(C)NC(=O)C2CC(O)CN2C(=O)C(NC(=O)CCCCCCCCCCN2CCCC(Nc3ncc(Cl)c(Nc4ccccc4S(=O)(=O)C(C)C)n3)C2)C(C)(C)C)cc1 (stereo not shown) | 22Rv1 | RNA-seq, measured: VWA5B1 mRNA |  | concentration not given | reference: DMSO | log2 fold change | -5.41 |
| Cc1cc(-c2ccc(C(=O)[C@@H]3CCCC[C@H]3C(=O)Nc3cnn4c3C(=O)NCC4)cc2)[nH]n1 |  |  | human, urine and faeces | oral, 200 mg | reference: dose | recovery of radioactivity | 83.1% and 86.3% and 82.6% and 90.4% and 80% and 88.8% |
| Cc1nn(-c2cccc(N)c2)c(=O)c2cnc(Nc3ccc(N4CCNCC4)cc3)nc12 | PRKDC (Homo sapiens, UniProt P78527) | enzyme activity, inhibitor |  |  |  | IC50 | > 10 µM |
| CC(C)C[C@H](NC(=O)[C@@H](CCCCNC(=O)[C@@H](Cc1ccccc1)NC(=O)CCCCCCCNC(=O)CN1CCN(CC(=O)O)CCN(CC(=O)O)CCN(CC(=O)O)CC1)NC(=O)[C@H](Cc1ccc(O)cc1)NC(=O)[C@H](CO)NC(=O)[C@H](Cc1c[nH]c2ccccc12)NC(=O)[C@H](Cc1c[nH]cn1)NC(=O)[C@@H]1CCC(=O)N1)C(=O)N[C@@H](CCCNC(=N)N)C(=O)N1CCC[C@H]1C(=O)NCC(N)=O [indium-111 labelled] |  | radio-HPLC | nude mice, DU-145 tumour-bearing, urine | intravenous, 18.5 MBq, 1 h | reference: radioactivity | polar metabolites in urine | ~40% |
| CC[C@H](C)[C@@H]1NC(=O)[C@H](Cc2ccc(O)cc2)NC(=O)CCCSC[C@@H](C(=O)N(CC(=O)N[C@@H](CC(C)C)C(=O)NCC(N)=O)Cc2ccc(F)cc2)NC(=O)[C@H](CC(N)=O)NC(=O)[C@H](CCC(N)=O)NC1=O |  |  | human | intranasal, 5 µg single |  | drug-related dry mouth | 33% |
| C=C1CC[C@H](OCCCNC(=O)CCOCCOCCOCCOCCOCCOCCOCCOCCOCCOCCOCCOCCOCCOCCOCCOCCOCCOCCOCCOCCOCCOCCOCCOCCOCCOCCOCCOCCOCCOCCOCCOCCOCCOCCOCCOCCNC(=O)CCN2C(=O)CC(SC[C@H](NC(=O)[C@H](Cc3ccccc3)NC(=O)[C@H](CC(N)=O)NC(=O)[C@H](Cc3c[nH]cn3)NC(=O)[C@@H](NC(=O)[C@H](CC(=O)O)NC(=O)[C@H](CCC(N)=O)NC(=O)[C@H](CC(C)C)NC(=O)[C@H](CCCCN)NC(=O)[C@H](CCCCN)NC(=O)[C@H](CCCNC(=N)N)NC(=O)[C@H](CC(C)C)NC(=O)[C@H](Cc3c[nH]c4ccccc34)NC(=O)[C@H](CCC(=O)O)NC(=O)[C@@H](NC(=O)[C@H](CCCNC(=N)N)NC(=O)[C@H](CCC(=O)O)NC(=O)[C@H](CCSC)NC(=O)[C@H](CO)NC(=O)[C@H](CC(N)=O)NC(=O)[C@H](CC(C)C)NC(=O)[C@H](Cc3c[nH]cn3)NC(=O)[C@H](CCCCN)NC(=O)CNC(=O)[C@H](CC(C)C)NC(=O)[C@H](CC(N)=O)NC(=O)[C@H](Cc3c[nH]cn3)NC(=O)[C@H](CCSC)NC(=O)[C@H](CC(C)C)NC(=O)[C@H](CCC(N)=O)NC(=O)[C@@H](NC(=O)[C@H](CCC(=O)O)NC(=O)[C@H](CO)NC(=O)[C@@H](NC(=O)[C@@H](N)CO)C(C)C)[C@@H](C)CC)C(C)C)C(C)C)C(=O)O)C2=O)C/C1=C/C=C1\CCC[C@]2(C)[C@@H]([C@H](C)CCCC(C)(C)O)CC[C@@H]12 (stereo partly shown) |  |  | male Sprague-Dawley rat, plasma | subcutaneous, 300 µg/kg, single dose |  | Tmax | 3 h |
| C=C(NC(=O)c1csc(-c2nc3c(cc2O)-c2nc(cs2)C(=O)NC(C(C)O)C(=O)NC(=C(C)OC)c2nc(cs2)C(=O)NC2c4nc(cs4)C(=O)NC(COC(=O)c4c5c6c(cccc6n4O)COC(=O)C(OC4CC(C)(O)C(N(C)C)C(C)O4)C2OC5)c2nc-3cs2)n1)C(N)=O (stereo not shown) |  |  | cynomolgus monkey, female, plasma | intravenous infusion, 3 mg/kg, multiple doses, day 7 |  | AUC(0-last) | 25300 ng·h/mL |
| CNS(=O)(=O)Nc1nccc(Cc2c(C)c3ccc(Oc4ncccc4F)cc3oc2=O)c1F | NCI-H2452 | cell viability |  | 7 days |  | IC50 | > 1 µM |

A few entries again:
| Compound | target or system | test | test system | setting | how to read | endpoint | value |
| --- | --- | --- | --- | --- | --- | --- | --- |
| C=C1CC[C@H](OCCCNC(=O)CCOCCOCCOCCOCCOCCOCCOCCOCCOCCOCCOCCOCCOCCOCCOCCOCCOCCOCCOCCOCCOCCOCCOCCOCCOCCOCCOCCOCCOCCOCCOCCOCCOCCOCCOCCOCCNC(=O)CCN2C(=O)CC(SC[C@H](NC(=O)[C@H](Cc3ccccc3)NC(=O)[C@H](CC(N)=O)NC(=O)[C@H](Cc3c[nH]cn3)NC(=O)[C@@H](NC(=O)[C@H](CC(=O)O)NC(=O)[C@H](CCC(N)=O)NC(=O)[C@H](CC(C)C)NC(=O)[C@H](CCCCN)NC(=O)[C@H](CCCCN)NC(=O)[C@H](CCCNC(=N)N)NC(=O)[C@H](CC(C)C)NC(=O)[C@H](Cc3c[nH]c4ccccc34)NC(=O)[C@H](CCC(=O)O)NC(=O)[C@@H](NC(=O)[C@H](CCCNC(=N)N)NC(=O)[C@H](CCC(=O)O)NC(=O)[C@H](CCSC)NC(=O)[C@H](CO)NC(=O)[C@H](CC(N)=O)NC(=O)[C@H](CC(C)C)NC(=O)[C@H](Cc3c[nH]cn3)NC(=O)[C@H](CCCCN)NC(=O)CNC(=O)[C@H](CC(C)C)NC(=O)[C@H](CC(N)=O)NC(=O)[C@H](Cc3c[nH]cn3)NC(=O)[C@H](CCSC)NC(=O)[C@H](CC(C)C)NC(=O)[C@H](CCC(N)=O)NC(=O)[C@@H](NC(=O)[C@H](CCC(=O)O)NC(=O)[C@H](CO)NC(=O)[C@@H](NC(=O)[C@@H](N)CO)C(C)C)[C@@H](C)CC)C(C)C)C(C)C)C(=O)O)C2=O)C/C1=C/C=C1\CCC[C@]2(C)[C@@H]([C@H](C)CCCC(C)(C)O)CC[C@@H]12 (stereo partly shown) |  |  | male Sprague-Dawley rat, plasma | subcutaneous, 300 µg/kg, single dose |  | Tmax | 3 h |
| C=C(NC(=O)c1csc(-c2nc3c(cc2O)-c2nc(cs2)C(=O)NC(C(C)O)C(=O)NC(=C(C)OC)c2nc(cs2)C(=O)NC2c4nc(cs4)C(=O)NC(COC(=O)c4c5c6c(cccc6n4O)COC(=O)C(OC4CC(C)(O)C(N(C)C)C(C)O4)C2OC5)c2nc-3cs2)n1)C(N)=O (stereo not shown) |  |  | cynomolgus monkey, female, plasma | intravenous infusion, 3 mg/kg, multiple doses, day 7 |  | AUC(0-last) | 25300 ng·h/mL |
